Measured values gathered from unrelated publications.
Each numbered part is a random draw from the data of one study; scales do not carry over between parts.

Series 1 — method: protein-binding microarray; molecule type: double-stranded DNA, one strand shown; sample: in vitro; concentration: 250 nM; setting: 60-bp whole probe; with: salmon DNA 0.4 mg/ml; baseline: random background probes; direction: higher = stronger binding; endpoint: log fluorescence; all sequences stand within: GCCTAGCAC … GTCTTGATTCGCTTGACGCTGCTG
Target: Interferon regulatory factor 7, full length, phosphomimetic (IRF7, Homo sapiens, UniProt Q92985, residues 1-503, S101K/S471D/S472D/S475D/S476D/S477D/S483D/S484D/S487D)
Construct (chain): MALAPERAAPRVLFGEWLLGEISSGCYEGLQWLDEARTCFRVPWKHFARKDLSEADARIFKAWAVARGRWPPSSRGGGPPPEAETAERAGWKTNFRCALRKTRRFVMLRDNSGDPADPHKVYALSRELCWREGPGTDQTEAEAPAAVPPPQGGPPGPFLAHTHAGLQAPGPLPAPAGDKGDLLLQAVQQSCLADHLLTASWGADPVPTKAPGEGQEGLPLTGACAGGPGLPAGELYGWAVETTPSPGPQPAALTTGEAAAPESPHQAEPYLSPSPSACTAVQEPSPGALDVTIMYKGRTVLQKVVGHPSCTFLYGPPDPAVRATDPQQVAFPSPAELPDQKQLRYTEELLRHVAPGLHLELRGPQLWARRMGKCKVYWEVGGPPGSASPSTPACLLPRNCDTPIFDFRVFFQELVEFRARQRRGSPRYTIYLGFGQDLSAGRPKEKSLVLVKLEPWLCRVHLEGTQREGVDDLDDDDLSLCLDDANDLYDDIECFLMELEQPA
Strand = TTAGATCTGGGGACTGGATTAGTGCTA; result = -0.0814 z-score
Strand = ATGCTTTACTCACTCGGAAAGTGCTAG; result = 0.694 z-score
Strand = TCATCTAGGTTTTCTGGAACTGTGCTA; result = -0.185 z-score
Strand = GACGATTGCAGTCTCGAGACGTGCTAG; result = -0.0453 z-score
Strand = TTAGGTTTCCTTCTCCTTTTGTGCTAG; result = 2.59 z-score

Series 2 — method: universal PBM; molecule type: double-stranded DNA, one strand shown; sample: in vitro; concentration: 600 nM; direction: higher = stronger binding; endpoint: E-score
Target: Sal-like protein 4, full length isoform A (SALL4, Homo sapiens, UniProt Q9UJQ4, residues 1-1053)
UniProt Q9UJQ4, sequence (whole entry, looked up): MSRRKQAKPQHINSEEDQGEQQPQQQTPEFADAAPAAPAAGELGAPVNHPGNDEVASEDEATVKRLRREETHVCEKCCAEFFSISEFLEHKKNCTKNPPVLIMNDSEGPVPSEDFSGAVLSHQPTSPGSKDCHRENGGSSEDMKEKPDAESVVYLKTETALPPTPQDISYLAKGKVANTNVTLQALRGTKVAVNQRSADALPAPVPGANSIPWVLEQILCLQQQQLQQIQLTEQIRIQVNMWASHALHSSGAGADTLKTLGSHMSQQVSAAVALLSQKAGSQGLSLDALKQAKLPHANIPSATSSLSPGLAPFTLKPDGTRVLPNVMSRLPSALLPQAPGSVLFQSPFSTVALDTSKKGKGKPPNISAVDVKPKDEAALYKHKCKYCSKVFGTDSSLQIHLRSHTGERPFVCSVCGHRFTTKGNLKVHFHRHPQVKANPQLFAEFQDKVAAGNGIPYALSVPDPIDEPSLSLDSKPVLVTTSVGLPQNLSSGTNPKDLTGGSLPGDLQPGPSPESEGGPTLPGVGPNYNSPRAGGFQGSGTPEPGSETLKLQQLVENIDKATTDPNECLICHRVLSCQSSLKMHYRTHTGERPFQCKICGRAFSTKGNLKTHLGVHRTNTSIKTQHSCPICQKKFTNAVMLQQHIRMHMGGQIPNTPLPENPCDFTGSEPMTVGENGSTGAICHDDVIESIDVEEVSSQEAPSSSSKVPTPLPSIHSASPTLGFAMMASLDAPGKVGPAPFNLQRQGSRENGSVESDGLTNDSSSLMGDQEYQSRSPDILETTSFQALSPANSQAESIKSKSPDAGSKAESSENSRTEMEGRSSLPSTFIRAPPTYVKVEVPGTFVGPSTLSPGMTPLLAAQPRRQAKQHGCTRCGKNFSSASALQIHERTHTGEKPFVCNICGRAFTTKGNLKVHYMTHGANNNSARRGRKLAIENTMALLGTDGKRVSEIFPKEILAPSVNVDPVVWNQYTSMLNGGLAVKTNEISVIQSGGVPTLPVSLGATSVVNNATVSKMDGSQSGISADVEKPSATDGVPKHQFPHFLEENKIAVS
Setting: 8-mer, flanks averaged, mean of replicates
Strand = AGGGGGTG; result = -0.372
Strand = CGGCGTAC; result = -0.331
Strand = AGAGGCAT; result = -0.0507
Strand = ACTTAAGG; result = 0.0446
Strand = ACACCTAG; result = -0.0639
Strand = TAAGATGA; result = 0.152
Strand = CCAGTCGG; result = -0.233
Strand = CACTAAAA; result = 0.118
Strand = ATTCCGGA; result = 0.0974

Series 3 — method: RNA Bind-n-Seq; molecule type: RNA; sample: in vitro; concentration: 200 nM; setting: whole 134-nt RNA, ends assumed; with: 150 mM KCl; baseline: input library; direction: higher = stronger binding; endpoint: log2 enrichment
Target: Ras GTPase-activating protein-binding protein 1, full length (G3BP1, Homo sapiens, UniProt Q13283)
UniProt Q13283, sequence (whole entry, looked up): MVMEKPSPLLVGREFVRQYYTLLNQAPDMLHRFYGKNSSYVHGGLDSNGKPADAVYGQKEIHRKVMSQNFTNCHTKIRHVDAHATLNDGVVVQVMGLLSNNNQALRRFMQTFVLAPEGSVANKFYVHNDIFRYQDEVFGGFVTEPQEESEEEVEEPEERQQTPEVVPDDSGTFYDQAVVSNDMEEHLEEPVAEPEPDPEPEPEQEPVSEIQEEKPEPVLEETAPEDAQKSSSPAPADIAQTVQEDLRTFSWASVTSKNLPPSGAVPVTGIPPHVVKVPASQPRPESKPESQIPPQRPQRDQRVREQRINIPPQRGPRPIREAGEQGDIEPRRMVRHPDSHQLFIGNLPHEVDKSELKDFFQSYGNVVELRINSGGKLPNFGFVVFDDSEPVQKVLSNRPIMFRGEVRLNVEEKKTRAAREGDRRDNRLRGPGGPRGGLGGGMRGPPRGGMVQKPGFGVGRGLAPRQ
Strand = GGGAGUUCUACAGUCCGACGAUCUCAAGUCCUGUGCUACACAUCGUAUGUACCGAAUCGGGGAGGGGUGGGGUGGGGAAAGUAUUAUGUUACGCCGUUCGGAUCUGCACUUCCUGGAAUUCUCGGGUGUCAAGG; result = 1.73
Strand = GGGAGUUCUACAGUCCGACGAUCAGUCCUGUGCUACACAUCGUAUGUACCGAAUCGGAAAAAGGGAAAAAGGGAAAAAGGAAAGUAUUAUGUUACGCCGUUCGGAUCUGCACUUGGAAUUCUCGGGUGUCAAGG; result = -1.06
Strand = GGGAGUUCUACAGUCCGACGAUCCCUCAAGUCCUGUGCUACACAUCGUAUGUACCGAAUCGGAGGGGAGGGAGGGAAAGUAUUAUGUUACGCCGUUCGGAUCUGCACUUCCAGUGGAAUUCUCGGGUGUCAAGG; result = 1.46
Strand = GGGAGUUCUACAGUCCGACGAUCGCAGGAAGUAAAAGCAAAUGGAAAUGCUUCGGAUAGUGGCAGGGGUGGGGGUUGCUAAGGAAAGGGUGGGAUGGGAGUGGGUAAAGAGUUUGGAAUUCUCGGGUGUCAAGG; result = 1.16
Strand = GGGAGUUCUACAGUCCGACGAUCGCAAGAAGUAAAAACAAAUGGAAAUGCUUCGGAUAGUGGCAGGGGUGGGGGUUGCUAAGGAAAGGGUGGGAUGGGAGUGGGUAAAGAGUUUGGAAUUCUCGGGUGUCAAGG; result = 0.779
Strand = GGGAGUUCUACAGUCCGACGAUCUAAUUGAAGAACCCAUUUUGCUCAUUUUAGGCAUCGUUAAAGAAUCUGGAGUGAAGCACAAGGGAUUGAUUGAAAUACCCAAUCUUUCUGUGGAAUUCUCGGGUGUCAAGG; result = 0.228

Mixed results
Molecule = PhoQ, residues 284 288 289 292 302 303 SLSLLA; target = PhoP, residues 12 14 15 18 19 AQCLL (Escherichia coli, UniProt P23836); assay = Sort-seq, item: YFP reporter; test system = E. coli; setting = PhoQ-PhoP variant library, with: 10 µM Mg2+; scale = baseline: high Mg2+ state, higher = stronger signaling; endpoint = fold induction; result = 1.22

Some of these lines once more (series 2):
Strand = CCAGTCGG; result = -0.233
Strand = AGAGGCAT; result = -0.0507
Strand = ACTTAAGG; result = 0.0446
